Assay results collected from several papers.
Protocols differ between the studies behind these lines. “And” joins repeats or separate records; there may be more than shown. ± gives the spread as reported.

SMILES = COc1ccc(-c2c(-c3ccc(C#N)c(F)c3)nc(N3CCC(N)CC3)n(C)c2=O)cc1F; test = item: ≥1 any-grade serious TEAE; system = human patients; setting = oral, dose not given, dose escalation; measurement = serious TEAE incidence; value = 46%
SMILES = CC(=O)c1c(C)c2cnc(Nc3ccc(C4CCN(CCS(C)(=O)=O)CC4)cn3)nc2n(C2CCCC2)c1=O; system = human, plasma; setting = oral, 25 mg once daily, day 21, multiple doses; measurement = Cmax; value = 79.2 ng/mL
SMILES = C=CCNc1c(O)cc2c(O)c1C[C@@H](C)C[C@H](OC)[C@H](O)[C@@H](C)/C=C(\C)[C@H](OC(N)=O)[C@@H](OC)/C=C\C=C(/C)C(=O)N2; test = item: headache; system = unresectable or metastatic GIST/STS; setting = intravenous, dose not given, all patients; measurement = patients with related AEs; value = 44%
SMILES = C[C@@H]1OC(=O)NN=C1c1ccc(-c2ccc(F)cc2)c(C(F)(F)F)c1; test = phase I trial, item: muscle spasms all grades; system = human patients; setting = 5 mg loading then 0.25 mg daily; measurement = patients with adverse event; value = 100%
SMILES = Nc1ncnc2c1ncn2[C@@H]1O[C@@H]2COP(=O)([S-])O[C@@H]3[C@H](O)[C@@H](COP([O-])(=S)O[C@H]2[C@H]1O)O[C@H]3n1cnc2c(N)ncnc21.[Na+].[Na+] (some centres unmarked); system = non-tumor-bearing mice, blood; setting = intravenous, 1 mg/kg, toxicity study; measurement = RDW-CV; value = 12.4 ± 0.38%
SMILES = CC(C)C[C@H](NC(=O)[C@H](CCCCN)NC(=O)OCC1c2ccccc2-c2ccccc21)C(=O)N[C@H](C(=O)N[C@@H](Cc1ccccc1)C(=O)N[C@@H](Cc1ccccc1)C(=O)N[C@@H](CCCCN)C(=O)NCC(=O)N[C@@H](Cc1ccccc1)C(=O)N[C@@H](C)C(=O)N[C@@H](Cc1c[nH]c2ccccc12)C(=O)N[C@@H](CC(N)=O)C(=O)N[C@H](C(=O)N[C@H]1CSSC[C@@H](C(=O)N[C@@H](Cc2c[nH]cn2)C(=O)N[C@@H](CCCNC(=N)N)C(=O)N[C@@H](CCCNC(=N)N)C(=O)N[C@@H](C)C(=O)N[C@@H](CC(N)=O)C(N)=O)NC(=O)[C@H](C(C)C)NC(=O)[C@H](CCCNC(=N)N)NC(=O)[C@H](C(C)C)NC(=O)CNC(=O)[C@H](CC(N)=O)NC(=O)[C@H](CCCNC(=N)N)NC(=O)[C@H](Cc2ccc(O)cc2)NC(=O)[C@H](C(C)C)NC1=O)C(C)C)C(C)C; system = ICR mice, serum; setting = intraperitoneal, 10 mg/kg, day 5; measurement = ALT; value = 47.3 ± 1.46 IU/L
SMILES = C=CC(=O)Nc1cc(Nc2nccc(Nc3cc(Cl)c(F)cc3C(C)(C)O)n2)c(OC)cc1N1CC[C@@H](N(C)C)C1; test = treatment-emergent adverse events; system = human; setting = oral, 50 mg, phase I clinical trial; measurement = incidence of weight decreased; value = 0%
SMILES = COc1ncccc1-c1cnn2ccc(N3CCN(C(=O)OC(C)C)CC3)nc12; system = mouse nerve ligation model, brain; setting = oral, 10 mg/kg, 30 min after last dose, repeat dosing day 5; measurement = drug concentration; value = 8.7 µM
SMILES = Cn1cncc1-c1c(F)cncc1NC(=O)c1c(N)nn2cc(F)cnc12; system = human patients; setting = oral, 80 mg once daily; measurement = grade ≥3 white cell decrease incidence; value = 0%
SMILES = C[C@@H](NC(=O)N1C(=O)[C@H](Cc2ccnc(N)c2)[C@H]1C(=O)O)C1CCCCC1; system = healthy adult Chinese volunteers; setting = continuous intravenous infusion, 0.6 mg/kg/h, 5-day infusion, CTCAE 5.0 grading; measurement = incidence of decreased hemoglobin; value = 12.5%
SMILES = CC(C)[C@@H]1NC(=O)CNC(=O)[C@H](CC(N)=O)NC(=O)[C@H](CCCNC(=N)N)NC(=O)[C@H](Cc2ccc(O)cc2)NC(=O)[C@H](C(C)C)NC(=O)[C@@H](NC(=O)[C@@H](NC(=O)[C@H](CC(N)=O)NC(=O)[C@H](Cc2c[nH]c3ccccc23)NC(=O)[C@H](C)NC(=O)[C@H](Cc2ccccc2)NC(=O)CN)C(C)C)CSSC[C@@H](C(=O)N[C@@H](Cc2c[nH]cn2)C(=O)N[C@@H](CCCNC(=N)N)C(=O)N[C@@H](CCCNC(=N)N)C(=O)N[C@@H](C)C(=O)N[C@@H](CC(N)=O)C(N)=O)NC(=O)[C@H](C(C)C)NC(=O)[C@H](CCCNC(=N)N)NC1=O; test = circular dichroism, item: antiparallel β-sheet; system = PBS; setting = 80 µM, pH 7.4, added: LTA 1 µM; measurement = secondary structure content; value = 36.1%
SMILES = CC(C)Nc1ccnc(Nc2cccc(-c3cccnc3)c2)n1; test = item: ALT; system = mouse, blood; setting = intraperitoneal, 10 mg/kg; measurement = blood chemistry; value = 46.5 U/L
SMILES = CC(=O)[C@H]1[C@H](C#N)C[C@H]2[C@@H]3CC=C4C[C@@H](O)CC[C@]4(C)[C@H]3CC[C@@]21C; test = qPCR, item: Cyp3a11; system = wild-type mice, liver; setting = 10 mg/kg, 3 days; how to read = baseline: vehicle; measurement = mRNA level; value = increased
SMILES = Cc1sc2c(c1C)C(c1ccc(Cl)cc1)=N[C@@H](CC(=O)Nc1ccc(O)cc1)c1nnc(C)n1-2; system = Crl:CD1(ICR) mice, female, brain; setting = intravenous, 5 µmol/kg; measurement = AUC(0-last); value = 0.0479 µM·h
SMILES = NC(=O)[C@H]1CCN(c2ncnc(N)c2F)C[C@@H]1N1CCC[C@@H](Nc2cc(Cl)cc(C(F)(F)F)c2)C1=O; system = B-cell malignancy patients; setting = oral, 328 mg twice daily, dose; measurement = grade ≥3 neutropenia; value = 0%
SMILES = C[C@]1(O)C[C@@](N)(c2ccc(-c3nc4n(c3-c3ccccc3)COc3ccncc3-4)cc2)C1; system = human, advanced or metastatic solid tumours; setting = dose not given, intermittent dose escalation total; measurement = patients with serious adverse event; value = 42.9%
SMILES = O=C(Nc1ccccc1)C1CCN(C(=O)Oc2cccnc2)CC1; test = item: Malaise; system = healthy female human; setting = concentration not given, all doses pooled; measurement = adverse event incidence; value = 0%
SMILES = COc1ccnc(C(=O)N[C@H]2COC(=O)[C@H](Cc3ccccc3)[C@@H](OC(=O)C(C)C)[C@H](C)OC2=O)c1OCOC(=O)C(C)C; system = wheat, grain; setting = foliar, dose not given, phenyl label; measurement = share of total radioactive residue; value = 38 % TRR
SMILES = CN1CC[C@@H](c2c(O)cc(O)c3c(=O)cc(-c4ccc(C(F)(F)F)cc4Cl)oc23)[C@@H]1CO; test = item: Leukopenia; system = relapsed B-cell malignancies; setting = oral, 100 mg, grade 3-4, intermittent dosing; measurement = patients with adverse event; value = 0%
SMILES = O=C1Nc2cc3[nH]nc(-c4ccncc4)c3cc2CN1Cc1ccccc1; test = CTCAE v4.03; system = advanced solid tumour patients; setting = intravenous, 0.45 mg/kg, schedules 1/2; measurement = patients with increased GGT; value = 0%
SMILES = CC(C)[C@H](O)C(=O)N[C@H]1Cc2ccc3c(c2)[C@]2(C4=C(c5nc(CO)co5)N=C(O4)[C@H](C(C)(C)C)NC1=O)c1cc(F)ccc1N[C@@H]2O3; system = NSG mice, plasma; setting = intravenous, 10 mg/kg, single dose at MTD, added: paclitaxel 40 mg/kg; measurement = AUC(0-t); value = 1860 ng·h/mL
SMILES = CC1(C)C(/C=C(\Cl)C(F)(F)F)C1C(=O)OC(C#N)c1cccc(Oc2ccccc2)c1 (centres unmarked); test = item: CYP2B6; system = human, age 5 years; measurement = enzyme contribution to clearance; value = 0.36%
SMILES = C=CC(=O)N1CC[C@H](n2nc(C#Cc3cc(OC)cc(OC)c3)c3c(N)ncnc32)C1; system = patients with advanced solid tumours; setting = oral, dose not given, Nausea, any grade, QD, added: sevelamer hydrochloride; measurement = adverse drug reaction incidence; value = 22.7%
SMILES = COc1cccc(Oc2ccccc2NC(=O)CNC(=O)c2cccc3ccccc23)c1; system = esterase-deficient SCID mice, male; setting = oral, 15 mg/kg/day, 14 days, toxicity study; measurement = serum phosphorus; value = 9.7 mg/dL and 10.9 mg/dL and 12.1 mg/dL
SMILES = COc1ccc2nc3cc(Cl)ccc3c(Nc3cc(CN4CCCC4)c(O)c(CN4CCCC4)c3)c2n1; system = mouse, blood; setting = intraperitoneal, 57 mg/kg; measurement = red blood cell count; value = 8.13 10¹²/L
SMILES = CC/C(=C(\c1ccccc1)c1ccc(OCCN(C)C)cc1)c1ccccc1; system = CD-1 mouse, male, plasma; setting = intraperitoneal, 3 mg/kg; measurement = AUC(0-inf); value = 612 ng·h/mL
SMILES = Cc1cccc(Cn2nc(C3CC3)c3c(NC(=O)c4cnc5cc(OCCN6CCN(C)CC6)ccn45)cccc32)n1; test = CTCAE v4.03, item: abdominal pain; system = platinum-resistant ovarian cancer patients; setting = oral, dose not given, added: pembrolizumab IV every 3 weeks; measurement = all-cause adverse events; value = 36.4%
SMILES = CCCCCCCCCCCCCCCC(=O)N[C@@H](CCC(=O)NCCCC[C@H](NC(=O)[C@H](CC(=O)O)NC(=O)[C@H](CO)NC(=O)[C@@H](NC(=O)[C@H](Cc1ccccc1)NC(=O)[C@@H](NC(=O)CNC(=O)[C@H](CCC(N)=O)NC(=O)[C@H](CO)NC(=O)[C@@H](N)Cc1c[nH]cn1)[C@@H](C)O)[C@@H](C)O)C(=O)N[C@@H](CO)C(=O)N[C@@H](CCC(=O)O)C(=O)N[C@@H](Cc1ccc(O)cc1)C(=O)N[C@@H](CC(C)C)C(=O)N[C@@H](CC(=O)O)C(=O)N[C@@H](CO)C(=O)N[C@@H](CCC(=O)O)C(=O)N[C@@H](CCCNC(=N)N)C(=O)N[C@@H](C)C(=O)N[C@@H](CCCNC(=N)N)C(=O)N[C@@H](CC(=O)O)C(=O)N[C@@H](Cc1ccccc1)C(=O)N[C@H](C(=O)N[C@@H](C)C(=O)N[C@@H](Cc1c[nH]c2ccccc12)C(=O)N[C@@H](CC(C)C)C(=O)N[C@@H](CCC(=O)O)C(=O)N[C@@H](C)C(=O)NCC(=O)NCC(=O)O)C(C)C)C(=O)O; test = item: Nausea; system = humans CrCl at least 90 mL/min; setting = subcutaneous, 100 µg single dose; measurement = treatment-related adverse events; value = 37.5%
SMILES = S=c1oc(-c2ccccc2)nn1CN1CCN(Cc2ccccc2)CC1; system = Wistar rat female; setting = oral, 500 mg/kg, acute toxicity OECD 423; measurement = serum ALT; value = 41 ± 3.3 U/L

For quick reference, copied from above:
SMILES = O=C(Nc1ccccc1)C1CCN(C(=O)Oc2cccnc2)CC1; test = item: Malaise; system = healthy female human; setting = concentration not given, all doses pooled; measurement = adverse event incidence; value = 0%
SMILES = C=CCNc1c(O)cc2c(O)c1C[C@@H](C)C[C@H](OC)[C@H](O)[C@@H](C)/C=C(\C)[C@H](OC(N)=O)[C@@H](OC)/C=C\C=C(/C)C(=O)N2; test = item: headache; system = unresectable or metastatic GIST/STS; setting = intravenous, dose not given, all patients; measurement = patients with related AEs; value = 44%
SMILES = S=c1oc(-c2ccccc2)nn1CN1CCN(Cc2ccccc2)CC1; system = Wistar rat female; setting = oral, 500 mg/kg, acute toxicity OECD 423; measurement = serum ALT; value = 41 ± 3.3 U/L
